{"data": "Assay results of several laboratories", "note": "Protocols differ between the studies behind these lines. Numbers after ± are the reported error."}
{"SMILES": "CCCC[C@H](NC(=O)CNC(=O)CNC(=O)CN1CCN(CC(=O)O)CCN(CC(=O)O)CCN(CC(=O)O)CC1)C(=O)N[C@H]1CC(=O)NCCCC[C@@H](C(N)=O)NC(=O)[C@H](Cc2c[nH]c3ccccc23)NC(=O)[C@H](CCCNC(=N)N)NC(=O)[C@@H](Cc2ccccc2)NC(=O)[C@H](Cc2c[nH]cn2)NC1=O [copper-64 labelled]", "test system": "female C57 mouse, B16/F1 melanoma, brain", "setting": "intravenous, 0.037 MBq, 2 h", "tissue uptake": "0.39 ± 0.22 %ID/g"}
{"SMILES": "CN1C(=O)[C@@H](Cc2ccc(O)c(I)c2)NC(=O)CNC(=O)[C@H](Cc2ccc3ccccc3c2)NC(=O)[C@H](CCCNC(=N)N)NC(=O)[C@H]1CCCNC(=O)c1ccc(CNC(=O)CN2CCN(CC(=O)O)CCN(CC(=O)O)CCN(CC(=O)O)CC2)cc1 [lutetium-177 labelled]", "test system": "female CB-17 SCID mouse, Daudi xenograft, kidney", "setting": "intravenous, 6 h, CXCR4 blocking, with: AMD3100 2 mg/kg coinjected", "tissue uptake": "2.76 ± 0.18 %ID/g"}
{"SMILES": "O=C([O-])CN1CCN(CC(=O)[O-])CCN(CC(=O)NCCc2ccc3c(c2)C2C=CCC2C(c2cc4c(cc2Br)OCO4)N3)CCN(CC(=O)[O-])CC1.[111In+3] (centres unmarked)", "test system": "mouse, Hec50 endometrial tumour, brain", "setting": "2 h post injection", "tissue uptake": "0.06 ± 0.01 %ID/g"}
{"SMILES": "CC(C)[C@H](NC(=O)[C@@H]1CCCN1C(=O)[C@H](CCCNC(=N)N)NC(=O)[C@H](CS)NC(=O)[C@H](Cc1c[nH]c2ccccc12)NC(=O)[C@H](CCCNC(=N)N)NC(=O)[C@@H](Cc1ccccc1)NC(=O)[C@H](Cc1c[nH]cn1)NC(=O)[C@H](CCC(=O)O)NC(=O)[C@H](CS)NC(=O)[C@H](CS)NC(=O)CNC(=O)[C@@H]1CC(=O)N[C@@H](CCCNC(=N)N)C(=O)NCC(=O)N[C@@H](CC(=O)O)C(=O)N[C@H](Cc2ccc(O)cc2)C(=O)N1)C(N)=O [technetium-99m labelled]", "test system": "C57 mouse, female, B16/F1 melanoma, skin", "setting": "intravenous, 0.037 MBq, 0.5 h", "tissue uptake": "6.39 ± 0.84 %ID/g"}
{"SMILES": "CN(C)c1ccc(-c2nc3ccc(OCCCCCN4CCN5CCN(CC4)CC(=O)[O][Al]([18F])[O]C(=O)C5)cc3s2)cc1", "test system": "ICR mouse, muscle", "setting": "intravenous, 60 min", "tissue uptake": "0.81 ± 0.76 %ID/g"}
{"SMILES": "CC(C)[C@H](NC(=O)[C@@H]1CCCN1C(=O)[C@H](CCCNC(=N)N)NC(=O)[C@H](CS)NC(=O)[C@H](Cc1c[nH]c2ccccc12)NC(=O)[C@H](CCCNC(=N)N)NC(=O)[C@@H](Cc1ccccc1)NC(=O)[C@H](Cc1c[nH]cn1)NC(=O)[C@H](CCC(=O)O)NC(=O)[C@H](CS)NC(=O)[C@H](CS)NC(=O)[C@@H]1CC(=O)N[C@@H](CCCNC(=N)N)C(=O)NCC(=O)N[C@@H](CC(=O)O)C(=O)N[C@H](Cc2ccc(O)cc2)C(=O)N1)C(N)=O [technetium-99m labelled]", "test system": "C57 mouse, female, B16/F1 melanoma, bone", "setting": "intravenous, 0.037 MBq, 24 h", "tissue uptake": "0.36 ± 0.27 %ID/g"}
{"SMILES": "CCCC[C@H](NC(=O)CNC(=O)CNC(=O)CN1CCN(CC(=O)O)CCN(CC(=O)O)CC1)C(=O)N[C@H]1CC(=O)NCCCC[C@@H](C(N)=O)NC(=O)[C@H](Cc2c[nH]c3ccccc23)NC(=O)[C@H](CCCNC(=N)N)NC(=O)[C@@H](Cc2ccccc2)NC(=O)[C@H](Cc2c[nH]cn2)NC1=O [copper-64 labelled]", "test system": "female C57 mouse, B16/F1 melanoma, blood", "setting": "intravenous, 0.037 MBq, 24 h", "tissue uptake": "0.1 ± 0.04 %ID/g"}
{"SMILES": "CCCC[C@H](NC(=O)CNC(=O)CNC(=O)CN1CCN(CC(=O)O)CCN(CC(=O)O)CCN(CC(=O)O)CC1)C(=O)N[C@H]1CC(=O)NCCCC[C@@H](C(N)=O)NC(=O)[C@H](Cc2c[nH]c3ccccc23)NC(=O)[C@H](CCCNC(=N)N)NC(=O)[C@@H](Cc2ccccc2)NC(=O)[C@H](Cc2c[nH]cn2)NC1=O [lead-203 labelled]", "test system": "C57 mouse, lung", "setting": "intravenous, 0.056 MBq, 24 h", "tissue uptake": "0.29 ± 0.12 %ID/g"}
{"note": "Some of these lines once more:"}
{"SMILES": "CC(C)[C@H](NC(=O)[C@@H]1CCCN1C(=O)[C@H](CCCNC(=N)N)NC(=O)[C@H](CS)NC(=O)[C@H](Cc1c[nH]c2ccccc12)NC(=O)[C@H](CCCNC(=N)N)NC(=O)[C@@H](Cc1ccccc1)NC(=O)[C@H](Cc1c[nH]cn1)NC(=O)[C@H](CCC(=O)O)NC(=O)[C@H](CS)NC(=O)[C@H](CS)NC(=O)[C@@H]1CC(=O)N[C@@H](CCCNC(=N)N)C(=O)NCC(=O)N[C@@H](CC(=O)O)C(=O)N[C@H](Cc2ccc(O)cc2)C(=O)N1)C(N)=O [technetium-99m labelled]", "test system": "C57 mouse, female, B16/F1 melanoma, bone", "setting": "intravenous, 0.037 MBq, 24 h", "tissue uptake": "0.36 ± 0.27 %ID/g"}
